Published values of several laboratories.
Each line is one published result; not all experiments were run side by side. Values after ≈ are worked out from the molar mass of the structure shown.
Chain of UniProt O00329 (whole entry, looked up): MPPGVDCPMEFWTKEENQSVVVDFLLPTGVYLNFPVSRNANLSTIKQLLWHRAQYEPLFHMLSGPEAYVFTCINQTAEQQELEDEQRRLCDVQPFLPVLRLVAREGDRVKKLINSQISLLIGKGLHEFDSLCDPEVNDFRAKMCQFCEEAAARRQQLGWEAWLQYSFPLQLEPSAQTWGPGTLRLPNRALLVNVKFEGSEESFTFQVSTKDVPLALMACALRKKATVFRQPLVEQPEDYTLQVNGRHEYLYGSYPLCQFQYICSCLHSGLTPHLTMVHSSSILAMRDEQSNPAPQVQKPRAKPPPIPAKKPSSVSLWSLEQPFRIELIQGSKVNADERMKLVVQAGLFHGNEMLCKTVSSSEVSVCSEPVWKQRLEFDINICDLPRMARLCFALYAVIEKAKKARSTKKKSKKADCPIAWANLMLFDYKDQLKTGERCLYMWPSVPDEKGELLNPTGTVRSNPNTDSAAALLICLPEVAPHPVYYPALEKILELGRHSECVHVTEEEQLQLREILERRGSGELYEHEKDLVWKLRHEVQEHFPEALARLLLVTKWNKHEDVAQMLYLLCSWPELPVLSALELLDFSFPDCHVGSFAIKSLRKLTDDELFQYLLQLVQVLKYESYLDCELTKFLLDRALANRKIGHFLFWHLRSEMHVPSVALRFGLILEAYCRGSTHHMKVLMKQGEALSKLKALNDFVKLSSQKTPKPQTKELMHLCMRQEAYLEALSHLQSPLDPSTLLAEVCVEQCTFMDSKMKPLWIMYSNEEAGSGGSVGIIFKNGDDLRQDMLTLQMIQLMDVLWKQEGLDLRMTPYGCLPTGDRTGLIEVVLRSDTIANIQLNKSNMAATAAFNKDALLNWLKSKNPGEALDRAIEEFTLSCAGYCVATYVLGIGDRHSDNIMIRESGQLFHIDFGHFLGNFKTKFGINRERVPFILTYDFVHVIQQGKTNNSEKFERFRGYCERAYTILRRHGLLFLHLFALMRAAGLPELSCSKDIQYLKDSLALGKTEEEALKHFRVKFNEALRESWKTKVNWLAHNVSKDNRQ

| Structure (SMILES) | tested on | assay | system | setting | endpoint | result |
| --- | --- | --- | --- | --- | --- | --- |
| COc1ncccc1-c1cnn2ccc(N3CCN(C(=O)OC(C)C)CC3)nc12 | Phosphatidylinositol 4,5-bisphosphate 3-kinase catalytic subunit delta isoform (PIK3CD, Homo sapiens, UniProt O00329) | binding, competition with immobilised ligand |  | 1 µM | remaining binding | 68% |
| Cc1ccccc1C(=O)NN=Cc1ccc(O)c(Br)c1 |  |  | mouse, plasma | intraperitoneal, 1.6 mg/kg | bioavailability | 100% |
| CC(C)C[C@H]1C(=O)N[C@@H](C)C(=O)N[C@@H](CO)C(=O)N[C@@H](C(C)C)C(=O)N(C)[C@@H](CC(C)C)C(=O)N[C@H](C)C(=O)N[C@H](C(C)C)C(=O)N2CCC[C@@H]2C(=O)N[C@H](Cc2ccc(O)cc2)C(=O)NCC(=O)N1C |  |  | aqueous buffer | 18 h, pH 7.4 | thermodynamic solubility | 813 µM (≈ 812 µg/mL) |
| CCCC[C@@H]1NC(=O)[C@H](Cc2ccc(O)cc2)NC(=O)[C@@H]2CCCN2C(=O)[C@H](CC(=O)O)NC(=O)[C@H](C)NC(=O)[C@H](Cc2ccccc2)NC(=O)[C@@H]2CSCCC(=O)N3CN(CN(C3)C(=O)CCSC[C@@H](C(=O)N[C@@H](CNC(=O)CCOCCOCCOCCOCCOCCn3cc(CCC(=O)N[C@H]4CSCCC(=O)N5CN6CN(C5)C(=O)CCSC[C@H](NC(=O)[C@@H](CC(=O)O)NC(=O)[C@H](Cc5cccc7ccccc57)NC(=O)[C@@H]5CCCN5C4=O)C(=O)N[C@@H](CCSC)C(=O)N[C@@H](CCCCNC(=N)N)C(=O)N[C@@H](CC(=O)O)C(=O)N[C@@H](Cc4c[nH]c5ccccc45)C(=O)N[C@@H](CO)C(=O)N[C@@H]([C@@H](C)O)C(=O)N4CCC[C@H]4C(=O)N4C[C@H](O)C[C@H]4C(=O)N[C@@H](Cc4c[nH]c5ccccc45)C(=O)N[C@H](C(N)=O)CSCCC6=O)nn3)C(N)=O)NC1=O)C(=O)CCSC[C@H](NC(C)=O)C(=O)N[C@@H](CC(C)(C)C)C(=O)N1CCC[C@H]1C(=O)N[C@@H](CCC(=O)O)C(=O)N[C@H](C)C(=O)N1CCC[C@H]1C(=O)N[C@@H](Cc1ccc(O)cc1)C(=O)N2 |  |  | rat, plasma | intravenous, 2 mg/kg | Vd | 0.84 L/kg |
| CCC[C@@](N)(CO)CCc1ccc(OCCCCCC(C)C)cc1 |  |  | dog, plasma | oral, 10 mg/kg, fed | Cmax | 616 nM |
| C=C(C)[C@@H]1CC[C@]2(NCCN3CCS(=O)(=O)CC3)CC[C@]3(C)[C@H](CC[C@@H]4[C@@]5(C)CC=C(C6=CC[C@@](COc7ncccc7C#N)(C(=O)O)CC6)C(C)(C)[C@@H]5CC[C@]43C)[C@@H]12 |  |  | human, plasma | oral, 100 mg, 24 h, fed | concentration | 317 ng/mL |
| Cc1ncsc1-c1ccc([C@H](C)NC(=O)[C@@H]2C[C@@H](O)CN2C(=O)[C@@H](NC(=O)CCN2CC3(CC(Nc4ccc(C(=O)NCCCn5cc(-c6ccc7c(c6)CCN7C(=O)Cc6cccc(OC(F)(F)F)c6)c6c(N)ncnc65)cn4)C3)C2)C(C)(C)C)cc1 |  | metabolic stability | mouse, liver S9 | 1 µM | half-life | 0.44 h |
| CC[C@H](C)[C@H]1C(=O)N[C@@H](CO)C(=O)N[C@@H](CC(C)C)C(=O)NCC(=O)N2CCC[C@H]2C(=O)N[C@@H](CC(C)C)C(=O)N[C@@H]([C@@H](C)O)C(=O)N[C@@H](CC(C)C)C(=O)N[C@@H](CC(=O)O)C(=O)N[C@H](Cc2ccc(O)cc2)C(=O)N2CCC[C@@H]2C(=O)N[C@H](Cc2ccc(O)cc2)C(=O)N1C |  |  | aqueous buffer | 18 h, pH 7.4 | solubility | 407 µM (≈ 549 µg/mL) |
| CC(C)CC(=O)OC[C@H]1O[C@@](C#N)(c2ccc3c(N)ncnn23)[C@H](O)[C@@H]1O |  |  | dog, plasma |  | fraction unbound | 0.3 |
| CC(C)C[C@H]1C(=O)N[C@H]([C@H](C)O)C(=O)N[C@@H](C)C(=O)N[C@@H](Cc2ccccc2)C(=O)N[C@H](C(=O)O)CSSC[C@H](N)C(=O)N2CCC[C@@H]2C(=O)N[C@@H](CCC(=O)O)C(=O)N[C@@H](C(C)C)C(=O)N2CCC[C@H]2C(=O)N1C |  |  | aqueous buffer | 18 h, pH 7.4 | thermodynamic solubility | 686 µM (≈ 749 µg/mL) |
| Cl.Cn1c(=O)n(CCCCN2CCC3(CC2)OCc2ccccc23)c2ccccc21 |  |  | male Sprague-Dawley rat, plasma | intravenous, 10 mg/kg | clearance | 26.2 mL/min/kg |
| CCCCCCCCCCCCCCCC(=O)NCCO |  |  | mouse | oral, 2000 mg/kg, single dose | LD50 | > 2000 mg/kg |
| CC(C)(C)[C@H](NC(=O)[C@H](CCONC(=N)N)NC(=O)Cc1ccc(CNC(=N)N)cc1)C(=O)N[C@@H](CCONC(=N)N)C(=O)NCc1ccc(C(=N)N)cc1 |  |  | male Sprague-Dawley rat, plasma | intravenous, 1 mg/kg | Vd | 0.569 L/kg |
| CC(C)(N)CNC(=O)O[C@H]1CCC[C@@]2(C1)OOC1(O2)C2CC3CC(C2)CC1C3 (some centres unmarked) |  |  | male CD-1 mouse, plasma | oral, 10 mg/kg | Tmax | 2 h |
| CN1CCN(S(=O)(=O)c2cc([N+](=O)[O-])ccc2N(CCOS(C)(=O)=O)CCOS(C)(=O)=O)CC1 |  |  | female SCID mouse, plasma | intraperitoneal, 10 mg/kg | half-life | 0.17 h |
| CC[C@H](C)[C@H]1C(=O)N[C@@H](Cc2ccccc2)C(=O)N[C@H](C(=O)O)CSCC(=O)N[C@H](Cc2ccc(O)cc2)C(=O)NCC(=O)N[C@@H](CC(C)C)C(=O)N2CCC[C@H]2C(=O)N[C@@H](CC(C)C)C(=O)N[C@@H](CC(C)C)C(=O)N[C@@H](C)C(=O)N[C@@H](C)C(=O)N1C |  |  | aqueous buffer | pH 7.4 | solubility | 758 µM (≈ 936 µg/mL) |
| N=c1c2c(-c3ccccc3)c(-c3ccccc3)n(Cc3ccccc3)c2ncn1[C@H]1CC[C@H](O)CC1 |  |  | male cynomolgus monkey, plasma | intravenous, 0.5 mg/kg, single dose | half-life | 40.1 h |
| CC(C)C[C@@H]1NC(=O)[C@H](CCC(=O)O)NC(=O)[C@H]2CCCN2C(=O)[C@@H](N)CSSC[C@@H](C(=O)O)NC(=O)[C@@H]2CCCN2C(=O)[C@H](Cc2ccccc2)NC(=O)[C@H](CC(C)C)N(C)C(=O)[C@H]([C@@H](C)O)NC(=O)[C@H](C(C)C)NC1=O |  |  | aqueous buffer | 18 h, pH 7.4 | solubility | 741 µM (≈ 840 µg/mL) |
| C/C=C1/CN2CC[C@@]34c5cc(O)ccc5N(C)[C@]35OC[C@@]4(C(=O)OC)[C@H]1C[C@H]25 |  |  | male Sprague-Dawley rat, plasma | intravenous, 1 mg/kg | clearance | 60 mL/min/kg |
| CC[C@@H]1NC(=O)[C@H](CC(C)C)NC(=O)[C@H](CC(C)C)NC(=O)CNC(=O)[C@@H](Cc2ccc(O)cc2)NC(=O)[C@H]2CCCN2C(=O)[C@H](CCCNC(=N)N)NC(=O)[C@H](C(C)C)NC(=O)[C@H](CC(C)C)NC(=O)[C@H]([C@@H](C)CC)NC1=O |  |  | aqueous buffer | pH 7.4 | solubility | 684 µM (≈ 760 µg/mL) |
| [2H]c1c([2H])c([C@]2([2H])CCCN2C(=O)C(C)(C)Oc2ccc3cn[nH]c3c2)c([2H])c([2H])c1C([2H])([2H])[2H] | Dual specificity tyrosine-phosphorylation-regulated kinase 1A (DYRK1A, Homo sapiens, UniProt Q13627) | binding, competition with immobilised ligand |  | 1 µM | remaining binding | 88% |
| CC[C@H](C)[C@H]1C(=O)N[C@@H](CC(C)C)C(=O)N2CCC[C@H]2C(=O)N2CCC[C@@H]2C(=O)NCC(=O)N[C@@H](CC(C)C)C(=O)N[C@@H](CC(C)C)C(=O)N[C@@H](C)C(=O)N[C@@H](CO)C(=O)N[C@H]([C@H](C)O)C(=O)N[C@H](Cc2ccc(O)cc2)C(=O)N1C |  |  | aqueous buffer | 18 h, pH 7.4 | thermodynamic solubility | 767 µM (≈ 875 µg/mL) |
| CC(C)C[C@H](NC(=O)[C@H](Cc1ccccc1)NC(=O)[C@H](Cc1ccccc1)NC(=O)Cc1ccc(-c2ccccc2)cc1)C(=O)N[C@@H](CCCCN)C(=O)N[C@@H](CCCNC(=N)N)C(=O)N[C@H](C(=O)N[C@@H](Cc1c[nH]c2ccccc12)C(=O)N[C@@H](CCCCN)C(=O)N[C@@H](CCCNC(=N)N)C(=O)O)C(C)C |  | metabolic stability | monkey, liver microsomes | 30 min | compound remaining | 11.1% |
